Published values pooled from the literature.
A part holds a random share of what one study measured.
UniProt Q99558, sequence (whole entry, looked up): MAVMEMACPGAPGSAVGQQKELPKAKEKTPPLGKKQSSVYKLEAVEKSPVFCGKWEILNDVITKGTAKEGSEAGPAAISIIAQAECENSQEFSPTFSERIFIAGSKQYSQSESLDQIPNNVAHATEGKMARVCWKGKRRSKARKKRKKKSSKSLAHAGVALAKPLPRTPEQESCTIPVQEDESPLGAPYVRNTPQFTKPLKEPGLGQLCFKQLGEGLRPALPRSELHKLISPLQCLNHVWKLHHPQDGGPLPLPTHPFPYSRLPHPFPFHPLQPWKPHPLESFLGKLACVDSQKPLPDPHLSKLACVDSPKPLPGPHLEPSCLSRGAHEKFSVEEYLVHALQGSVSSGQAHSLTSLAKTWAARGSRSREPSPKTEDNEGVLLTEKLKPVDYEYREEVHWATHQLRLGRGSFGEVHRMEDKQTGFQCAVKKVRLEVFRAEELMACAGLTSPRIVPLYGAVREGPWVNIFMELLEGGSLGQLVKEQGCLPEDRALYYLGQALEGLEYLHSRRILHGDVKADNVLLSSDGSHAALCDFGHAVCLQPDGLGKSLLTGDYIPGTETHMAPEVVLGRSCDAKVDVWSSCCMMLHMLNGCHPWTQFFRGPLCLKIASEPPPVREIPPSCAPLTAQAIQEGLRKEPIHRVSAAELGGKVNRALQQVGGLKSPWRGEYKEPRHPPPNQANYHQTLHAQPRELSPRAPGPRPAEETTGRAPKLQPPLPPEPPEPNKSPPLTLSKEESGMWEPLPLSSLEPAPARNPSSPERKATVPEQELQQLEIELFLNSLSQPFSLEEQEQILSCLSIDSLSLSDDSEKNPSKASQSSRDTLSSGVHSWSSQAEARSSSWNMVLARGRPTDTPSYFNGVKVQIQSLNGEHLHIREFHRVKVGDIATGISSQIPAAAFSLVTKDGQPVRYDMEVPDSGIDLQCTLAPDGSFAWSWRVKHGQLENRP
UniProt Q15349, sequence (whole entry, looked up): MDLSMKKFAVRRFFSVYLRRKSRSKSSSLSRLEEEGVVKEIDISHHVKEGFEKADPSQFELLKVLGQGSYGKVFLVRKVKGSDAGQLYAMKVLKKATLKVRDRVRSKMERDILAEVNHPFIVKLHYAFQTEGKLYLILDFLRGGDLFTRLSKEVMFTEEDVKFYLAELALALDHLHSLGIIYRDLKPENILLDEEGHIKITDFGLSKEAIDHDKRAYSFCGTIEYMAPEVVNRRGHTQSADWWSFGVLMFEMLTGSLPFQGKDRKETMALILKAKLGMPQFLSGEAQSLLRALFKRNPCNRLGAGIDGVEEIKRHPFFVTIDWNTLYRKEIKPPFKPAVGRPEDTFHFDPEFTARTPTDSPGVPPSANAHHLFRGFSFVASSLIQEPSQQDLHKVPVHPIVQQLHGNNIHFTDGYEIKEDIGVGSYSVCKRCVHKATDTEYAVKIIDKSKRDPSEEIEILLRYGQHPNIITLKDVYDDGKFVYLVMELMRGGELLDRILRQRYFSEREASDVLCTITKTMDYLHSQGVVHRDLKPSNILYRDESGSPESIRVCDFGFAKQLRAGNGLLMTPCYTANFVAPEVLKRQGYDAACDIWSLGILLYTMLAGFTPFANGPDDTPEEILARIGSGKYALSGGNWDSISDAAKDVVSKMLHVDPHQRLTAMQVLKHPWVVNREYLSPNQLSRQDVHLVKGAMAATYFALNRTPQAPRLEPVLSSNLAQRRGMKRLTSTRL
UniProt Q9UHD2, sequence (whole entry, looked up): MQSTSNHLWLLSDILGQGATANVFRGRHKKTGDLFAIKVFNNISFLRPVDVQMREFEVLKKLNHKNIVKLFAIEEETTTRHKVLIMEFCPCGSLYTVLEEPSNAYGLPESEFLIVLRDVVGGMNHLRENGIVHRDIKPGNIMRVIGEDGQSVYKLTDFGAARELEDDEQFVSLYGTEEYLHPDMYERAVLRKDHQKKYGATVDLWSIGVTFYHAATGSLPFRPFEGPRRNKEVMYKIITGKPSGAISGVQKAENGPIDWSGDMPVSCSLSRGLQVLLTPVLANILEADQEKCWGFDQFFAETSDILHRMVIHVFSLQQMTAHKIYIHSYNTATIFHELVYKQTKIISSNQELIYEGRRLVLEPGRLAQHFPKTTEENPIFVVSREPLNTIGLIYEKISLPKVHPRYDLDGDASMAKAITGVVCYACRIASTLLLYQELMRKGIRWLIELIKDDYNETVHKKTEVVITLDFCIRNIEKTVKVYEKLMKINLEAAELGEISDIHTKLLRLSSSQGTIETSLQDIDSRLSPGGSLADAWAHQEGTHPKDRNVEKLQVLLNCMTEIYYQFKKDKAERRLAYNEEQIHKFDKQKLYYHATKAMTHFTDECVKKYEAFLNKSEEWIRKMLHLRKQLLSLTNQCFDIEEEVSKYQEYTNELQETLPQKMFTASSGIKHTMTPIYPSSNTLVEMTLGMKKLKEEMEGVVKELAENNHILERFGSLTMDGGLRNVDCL
UniProt P78368, sequence (whole entry, looked up): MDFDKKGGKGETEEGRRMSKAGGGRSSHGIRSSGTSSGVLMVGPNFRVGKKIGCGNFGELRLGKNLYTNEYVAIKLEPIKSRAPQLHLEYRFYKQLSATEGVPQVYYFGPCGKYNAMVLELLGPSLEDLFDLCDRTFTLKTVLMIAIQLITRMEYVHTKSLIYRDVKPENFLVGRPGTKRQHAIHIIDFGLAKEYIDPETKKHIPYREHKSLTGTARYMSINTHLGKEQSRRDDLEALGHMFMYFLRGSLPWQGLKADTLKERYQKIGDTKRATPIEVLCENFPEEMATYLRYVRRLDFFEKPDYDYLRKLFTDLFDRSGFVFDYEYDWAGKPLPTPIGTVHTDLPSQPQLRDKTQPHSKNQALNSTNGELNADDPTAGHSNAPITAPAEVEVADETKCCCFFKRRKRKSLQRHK
UniProt P22607, sequence (whole entry, looked up): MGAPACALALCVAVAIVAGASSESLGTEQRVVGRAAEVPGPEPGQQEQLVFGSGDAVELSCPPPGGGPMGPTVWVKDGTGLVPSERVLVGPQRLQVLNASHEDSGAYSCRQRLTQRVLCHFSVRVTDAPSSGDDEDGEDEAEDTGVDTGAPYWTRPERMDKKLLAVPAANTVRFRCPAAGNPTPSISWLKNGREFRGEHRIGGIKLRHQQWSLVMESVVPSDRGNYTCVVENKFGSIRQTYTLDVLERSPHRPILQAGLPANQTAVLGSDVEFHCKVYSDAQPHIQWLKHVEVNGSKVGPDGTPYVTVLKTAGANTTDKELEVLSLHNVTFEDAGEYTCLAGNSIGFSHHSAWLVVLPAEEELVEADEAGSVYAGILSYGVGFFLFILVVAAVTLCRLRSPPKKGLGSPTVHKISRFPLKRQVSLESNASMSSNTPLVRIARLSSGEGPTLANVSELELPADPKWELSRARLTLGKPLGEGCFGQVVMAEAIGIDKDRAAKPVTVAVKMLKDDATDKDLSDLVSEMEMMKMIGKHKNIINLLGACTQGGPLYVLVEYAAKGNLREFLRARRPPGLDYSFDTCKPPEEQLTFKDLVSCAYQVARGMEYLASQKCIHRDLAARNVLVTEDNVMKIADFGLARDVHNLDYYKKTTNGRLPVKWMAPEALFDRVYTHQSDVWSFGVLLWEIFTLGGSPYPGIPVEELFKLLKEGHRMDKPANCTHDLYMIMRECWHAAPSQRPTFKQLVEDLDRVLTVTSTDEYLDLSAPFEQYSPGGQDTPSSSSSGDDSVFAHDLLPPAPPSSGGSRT
UniProt Q6PHR2, sequence (whole entry, looked up): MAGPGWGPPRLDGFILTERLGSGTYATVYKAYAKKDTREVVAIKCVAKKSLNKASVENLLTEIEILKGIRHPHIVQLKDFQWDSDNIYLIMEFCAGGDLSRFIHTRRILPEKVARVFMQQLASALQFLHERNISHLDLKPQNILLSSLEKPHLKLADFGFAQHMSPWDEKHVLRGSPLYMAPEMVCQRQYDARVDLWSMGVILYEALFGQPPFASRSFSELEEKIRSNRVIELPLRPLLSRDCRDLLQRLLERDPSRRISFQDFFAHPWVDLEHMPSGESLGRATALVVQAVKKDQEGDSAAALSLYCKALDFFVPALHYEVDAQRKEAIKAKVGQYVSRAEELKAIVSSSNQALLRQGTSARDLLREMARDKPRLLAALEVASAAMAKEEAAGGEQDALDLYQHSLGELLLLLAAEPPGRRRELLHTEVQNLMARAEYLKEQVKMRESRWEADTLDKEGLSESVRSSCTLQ
UniProt P49841, sequence (whole entry, looked up): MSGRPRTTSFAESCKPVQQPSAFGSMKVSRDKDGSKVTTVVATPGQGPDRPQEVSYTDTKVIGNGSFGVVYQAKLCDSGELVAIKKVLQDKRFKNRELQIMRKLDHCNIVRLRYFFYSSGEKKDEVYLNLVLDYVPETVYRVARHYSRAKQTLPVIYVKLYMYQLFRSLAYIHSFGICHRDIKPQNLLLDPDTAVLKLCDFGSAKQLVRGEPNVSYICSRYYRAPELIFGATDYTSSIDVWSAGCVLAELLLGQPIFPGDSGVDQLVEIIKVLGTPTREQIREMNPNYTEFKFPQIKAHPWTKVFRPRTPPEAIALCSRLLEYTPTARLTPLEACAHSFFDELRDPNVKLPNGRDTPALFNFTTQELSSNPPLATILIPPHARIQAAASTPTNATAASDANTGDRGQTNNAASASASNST

Block 1 — Compound: CCc1[nH]c(-c2ccc(OC)cc2)nc1-c1ccncc1; read-out: enzyme activity; mode: inhibitor; concentration: 0.5 µM; reference: control
For Casein kinase I isoform gamma-3 (CSNK1G3, Homo sapiens, UniProt Q9Y6M4): remaining activity read 106%.
The remaining activity was 98.3% (Tyrosine-protein kinase ABL2 (ABL2, Homo sapiens, UniProt P42684)).
For Ephrin type-A receptor 3 (EPHA3, Homo sapiens, UniProt P29320): remaining activity read 100%.
The remaining activity was 99.7% (Serine/threonine-protein kinase TBK1 (TBK1, Homo sapiens, UniProt Q9UHD2)).
Tyrosine-protein kinase Mer (MERTK, Homo sapiens, UniProt Q12866) — remaining activity: 92.1%.
It gave 88.1% for remaining activity (Fibroblast growth factor receptor 1 (FGFR1, Homo sapiens, UniProt P11362)).
For Mitogen-activated protein kinase kinase kinase 14 (MAP3K14, Homo sapiens, UniProt Q99558): remaining activity read 118%.
Glycogen synthase kinase-3 beta (GSK3B, Homo sapiens, UniProt P49841) — remaining activity: 108%.
For Casein kinase I isoform gamma-2 (CSNK1G2, Homo sapiens, UniProt P78368): remaining activity read 97.7%.
The remaining activity was 99.8% (Fibroblast growth factor receptor 3 (FGFR3, Homo sapiens, UniProt P22607)).
Serine/threonine-protein kinase ULK3 (ULK3, Homo sapiens, UniProt Q6PHR2) — remaining activity: 83.4%.
Ribosomal protein S6 kinase alpha-2 (RPS6KA2, Homo sapiens, UniProt Q15349) — remaining activity: 99.1%.
For MAP kinase-activated protein kinase 2 (MAPKAPK2, Homo sapiens, UniProt P49137): remaining activity read 100%.

Block 2 — technique: aptamer microarray, sandwich; form: DNA with 2'F-ANA; matrix: in vitro; concentration: 200 nM; together with: Cy3 exosite-II aptamer, 400 nM; reading: higher = stronger binding; sequence: GGTTGGTGTGGTTGG
Target: Prothrombin, mature alpha-thrombin (F2, Homo sapiens, UniProt P00734)
Setting: whole 15-mer aptamer, many near background
`2'F-ANA at 3 4 6 7 10 11 12` — result for “mean fluorescence intensity”: 298 a.u.
Under “mean fluorescence intensity”, `2'F-ANA at 1 2 7 15` is recorded as 168 a.u.
For `2'F-ANA at 2 4 7 9 10 13`, “mean fluorescence intensity” read 88.3 a.u.
`2'F-ANA at 1 3 4 8 9 13`: “mean fluorescence intensity” 133 a.u.
`2'F-ANA at 1 2 3 4 5 9 11 13` — result for “mean fluorescence intensity”: 53.9 a.u.
`2'F-ANA at 1 2 4 6 7 8 10 11 13 14` — result for “mean fluorescence intensity”: 47.6 a.u.
`2'F-ANA at 2 6 11`: “mean fluorescence intensity” 349 a.u.
For `2'F-ANA at 1 2 4 5 6 8 9 10 11 12 14`, “mean fluorescence intensity” read 52.9 a.u.

Further values, each from its own experiment
SMN1 full length: SMN1, full length (human, UniProt Q16637, residues 1-294)
UniProt Q16637, sequence (whole entry, looked up): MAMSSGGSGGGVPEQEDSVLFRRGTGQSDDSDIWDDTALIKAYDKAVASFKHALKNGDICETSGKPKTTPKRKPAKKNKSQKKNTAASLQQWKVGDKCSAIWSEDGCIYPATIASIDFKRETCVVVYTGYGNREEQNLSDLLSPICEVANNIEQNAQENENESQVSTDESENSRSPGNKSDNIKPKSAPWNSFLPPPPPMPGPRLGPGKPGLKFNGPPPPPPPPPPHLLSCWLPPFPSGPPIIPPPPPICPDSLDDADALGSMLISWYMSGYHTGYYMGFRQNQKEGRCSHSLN
`CN(C)[C@@H]1CCN(c2cc(-c3ccccc3)nc3ccnn23)C1` gave a Ki of 1480 nM (5-hydroxytryptamine receptor 1D (HTR1D, Homo sapiens, UniProt P28221); cell-free assay, radioligand).
Under “relative RNA binding”, `GGGCUCACCACGCACGUGCGUUUGAUUGCUGUAGGUCUGGCCUCACCACGGCAAGCU` is recorded as 76 % of pool (SMN1 full length; nitrocellulose filter binding; RNA, in vitro; 100 nM, whole RNA, constant flanks, single concentration, ends assumed; reference: round 9 selected pool, higher = stronger binding).
`CCC(=O)N[C@H]1CC[C@@H](C(=O)N(C)c2ccc(-c3nc4ccccc4o3)cc2)C1` gave a remaining binding of 95% (Calcium/calmodulin-dependent protein kinase type II subunit gamma (CAMK2G, Homo sapiens, UniProt Q13555); cell-free assay, competition with immobilised ligand; 1 µM).
`GGGCUCACCACGCACGUGGGCCAAGGUGGGGUAUGCGUGUCCUCACCACGGCAAGCU` — result for “relative RNA binding”: 8.8 % of pool (SMN1 full length; nitrocellulose filter binding; RNA, in vitro; 100 nM, whole RNA, constant flanks, single concentration, ends assumed; reference: round 9 selected pool, higher = stronger binding).
With `CN(C)C(=O)/C(C#N)=C/c1ccc(-c2nc3cnc4c(ccn4C)c3n2C2CCCCC2)o1` the viability was 87.6% (sample BA colorectal tumour organoid; 0.1 µM; reference: DMSO).
With `COc1cc(-c2cn(C3CCc4ccccc4N(CC(F)(F)F)C3=O)nn2)ccc1-n1ccc(C)n1` (stereo not drawn) the remaining binding was 100% (Tyrosine-protein kinase Lck (LCK, Homo sapiens, UniProt P06239); binding, competition with immobilised ligand; 1 µM).

Excerpt of the above (block 1):
For MAP kinase-activated protein kinase 2 (MAPKAPK2, Homo sapiens, UniProt P49137): remaining activity read 100%.
For Casein kinase I isoform gamma-3 (CSNK1G3, Homo sapiens, UniProt Q9Y6M4): remaining activity read 106%.
Glycogen synthase kinase-3 beta (GSK3B, Homo sapiens, UniProt P49841) — remaining activity: 108%.
